Assay results gathered from unrelated publications.
Each numbered part is a random draw from the data of one study; scales do not carry over between parts.
Chain of UniProt P00519 (whole entry, unmodified, looked up): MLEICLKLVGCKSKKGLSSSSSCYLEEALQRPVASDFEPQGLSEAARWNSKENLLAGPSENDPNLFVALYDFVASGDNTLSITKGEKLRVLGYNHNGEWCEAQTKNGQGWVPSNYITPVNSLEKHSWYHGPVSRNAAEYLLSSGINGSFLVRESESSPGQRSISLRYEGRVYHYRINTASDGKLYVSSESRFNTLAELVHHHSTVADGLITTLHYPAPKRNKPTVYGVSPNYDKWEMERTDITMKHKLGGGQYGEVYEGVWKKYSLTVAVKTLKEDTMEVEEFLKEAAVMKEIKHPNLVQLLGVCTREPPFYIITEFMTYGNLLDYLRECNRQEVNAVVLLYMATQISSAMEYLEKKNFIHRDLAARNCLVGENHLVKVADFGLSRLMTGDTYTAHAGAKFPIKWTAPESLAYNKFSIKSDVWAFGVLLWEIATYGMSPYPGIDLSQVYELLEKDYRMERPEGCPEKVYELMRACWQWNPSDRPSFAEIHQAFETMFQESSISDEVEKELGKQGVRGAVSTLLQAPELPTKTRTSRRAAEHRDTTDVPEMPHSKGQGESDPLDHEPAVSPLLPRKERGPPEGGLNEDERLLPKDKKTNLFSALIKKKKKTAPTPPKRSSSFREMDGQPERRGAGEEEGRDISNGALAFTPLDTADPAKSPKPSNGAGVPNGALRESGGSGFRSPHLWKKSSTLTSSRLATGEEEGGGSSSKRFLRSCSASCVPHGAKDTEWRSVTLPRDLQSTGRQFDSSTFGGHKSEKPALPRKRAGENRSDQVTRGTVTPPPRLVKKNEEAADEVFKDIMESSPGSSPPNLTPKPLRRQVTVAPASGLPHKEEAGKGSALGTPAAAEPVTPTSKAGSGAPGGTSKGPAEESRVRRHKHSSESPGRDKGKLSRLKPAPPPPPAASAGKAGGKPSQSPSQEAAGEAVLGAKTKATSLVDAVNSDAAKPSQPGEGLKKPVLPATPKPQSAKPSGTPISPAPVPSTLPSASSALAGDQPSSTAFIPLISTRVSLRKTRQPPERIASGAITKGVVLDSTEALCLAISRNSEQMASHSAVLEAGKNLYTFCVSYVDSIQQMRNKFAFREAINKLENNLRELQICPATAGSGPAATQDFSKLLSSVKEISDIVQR
Chain of UniProt Q13873 (whole entry, looked up): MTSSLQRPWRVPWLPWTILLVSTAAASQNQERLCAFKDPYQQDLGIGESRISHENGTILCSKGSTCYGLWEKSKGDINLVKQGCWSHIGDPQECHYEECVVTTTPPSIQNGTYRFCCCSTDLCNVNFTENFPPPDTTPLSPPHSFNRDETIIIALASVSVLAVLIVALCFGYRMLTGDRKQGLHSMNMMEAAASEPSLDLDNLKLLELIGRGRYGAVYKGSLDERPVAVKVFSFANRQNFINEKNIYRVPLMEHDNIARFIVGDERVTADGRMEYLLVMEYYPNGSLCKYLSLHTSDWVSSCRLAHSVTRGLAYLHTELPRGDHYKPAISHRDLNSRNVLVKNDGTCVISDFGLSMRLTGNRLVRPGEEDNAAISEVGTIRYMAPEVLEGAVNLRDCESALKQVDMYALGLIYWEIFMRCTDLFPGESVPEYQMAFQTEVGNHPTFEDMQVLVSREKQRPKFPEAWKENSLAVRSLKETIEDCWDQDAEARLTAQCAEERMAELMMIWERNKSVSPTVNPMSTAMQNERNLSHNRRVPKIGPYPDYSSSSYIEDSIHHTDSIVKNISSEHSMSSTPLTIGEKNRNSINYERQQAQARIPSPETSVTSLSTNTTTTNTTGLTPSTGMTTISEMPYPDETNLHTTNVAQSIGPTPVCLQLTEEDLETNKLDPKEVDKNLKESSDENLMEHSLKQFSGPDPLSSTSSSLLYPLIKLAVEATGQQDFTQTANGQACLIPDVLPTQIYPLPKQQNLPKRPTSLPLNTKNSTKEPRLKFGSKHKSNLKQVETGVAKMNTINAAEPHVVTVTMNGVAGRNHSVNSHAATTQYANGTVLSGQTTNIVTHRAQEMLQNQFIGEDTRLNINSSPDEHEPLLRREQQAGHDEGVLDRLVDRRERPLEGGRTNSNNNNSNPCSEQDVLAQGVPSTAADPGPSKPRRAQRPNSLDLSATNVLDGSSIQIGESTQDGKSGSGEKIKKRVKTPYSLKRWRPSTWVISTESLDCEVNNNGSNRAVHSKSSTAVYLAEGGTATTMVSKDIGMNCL
Chain of UniProt P42336 (whole entry, unmodified, looked up): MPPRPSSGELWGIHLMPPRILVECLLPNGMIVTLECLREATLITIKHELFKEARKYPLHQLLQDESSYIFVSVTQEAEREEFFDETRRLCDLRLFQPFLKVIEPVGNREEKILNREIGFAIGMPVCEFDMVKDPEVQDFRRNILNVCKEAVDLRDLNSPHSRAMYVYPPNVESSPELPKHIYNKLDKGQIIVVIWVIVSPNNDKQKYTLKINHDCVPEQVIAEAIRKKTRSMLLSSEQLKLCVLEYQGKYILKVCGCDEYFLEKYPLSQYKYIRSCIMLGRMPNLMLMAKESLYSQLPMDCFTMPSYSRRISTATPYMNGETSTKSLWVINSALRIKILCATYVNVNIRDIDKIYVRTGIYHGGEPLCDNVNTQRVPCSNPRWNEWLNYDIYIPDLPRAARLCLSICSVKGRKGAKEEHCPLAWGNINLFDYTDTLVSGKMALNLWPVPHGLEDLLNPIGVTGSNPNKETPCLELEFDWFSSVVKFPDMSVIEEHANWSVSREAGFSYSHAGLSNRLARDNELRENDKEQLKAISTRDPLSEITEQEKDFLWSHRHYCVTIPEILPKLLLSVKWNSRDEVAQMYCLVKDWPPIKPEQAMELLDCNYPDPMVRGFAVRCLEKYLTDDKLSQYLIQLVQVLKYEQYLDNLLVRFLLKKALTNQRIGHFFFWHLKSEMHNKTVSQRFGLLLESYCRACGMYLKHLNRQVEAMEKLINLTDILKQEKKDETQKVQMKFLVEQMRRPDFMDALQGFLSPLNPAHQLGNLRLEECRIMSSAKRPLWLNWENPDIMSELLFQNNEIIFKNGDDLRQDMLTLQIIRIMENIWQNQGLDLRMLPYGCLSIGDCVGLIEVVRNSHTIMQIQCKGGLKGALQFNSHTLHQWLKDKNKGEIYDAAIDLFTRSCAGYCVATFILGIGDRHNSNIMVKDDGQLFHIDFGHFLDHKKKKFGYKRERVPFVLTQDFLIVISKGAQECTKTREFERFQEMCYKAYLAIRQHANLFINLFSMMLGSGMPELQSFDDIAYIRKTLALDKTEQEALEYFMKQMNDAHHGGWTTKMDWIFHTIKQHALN
Chain of UniProt Q9UQB9 (whole entry, looked up): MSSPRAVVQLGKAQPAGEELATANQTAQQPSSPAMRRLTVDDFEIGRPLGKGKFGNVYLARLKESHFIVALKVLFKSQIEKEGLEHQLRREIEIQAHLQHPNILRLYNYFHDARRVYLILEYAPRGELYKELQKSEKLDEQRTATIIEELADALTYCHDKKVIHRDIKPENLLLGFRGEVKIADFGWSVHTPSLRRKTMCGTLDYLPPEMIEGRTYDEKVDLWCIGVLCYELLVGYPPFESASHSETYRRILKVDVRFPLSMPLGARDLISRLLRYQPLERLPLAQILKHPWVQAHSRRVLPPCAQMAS
Chain of UniProt Q9HBH9 (whole entry, looked up): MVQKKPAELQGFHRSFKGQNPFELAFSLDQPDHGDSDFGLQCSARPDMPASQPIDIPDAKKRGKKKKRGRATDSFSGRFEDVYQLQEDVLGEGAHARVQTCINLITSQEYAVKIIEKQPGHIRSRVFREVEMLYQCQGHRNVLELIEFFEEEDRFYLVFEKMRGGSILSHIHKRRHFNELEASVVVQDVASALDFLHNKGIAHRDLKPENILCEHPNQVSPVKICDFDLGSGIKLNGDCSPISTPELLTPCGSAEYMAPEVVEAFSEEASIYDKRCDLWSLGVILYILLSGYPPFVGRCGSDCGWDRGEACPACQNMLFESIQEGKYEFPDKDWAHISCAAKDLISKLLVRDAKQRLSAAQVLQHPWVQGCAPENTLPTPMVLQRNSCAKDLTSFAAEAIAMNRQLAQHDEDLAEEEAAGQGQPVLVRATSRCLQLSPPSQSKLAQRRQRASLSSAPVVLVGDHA

Series 1 — method: protein-binding microarray; form: hairpin DNA; medium: in vitro; tested at: not given; relative to: not given; reading: higher = stronger binding; quantity: median fluorescence; constant ends, left off below: GAGGCCA … TGGCCTCACACTC
Target: FOXO3, forkhead domain (mouse, UniProt Q9WVH4, residues 31-263)
Chain of UniProt Q9WVH4 (31-263, looked up): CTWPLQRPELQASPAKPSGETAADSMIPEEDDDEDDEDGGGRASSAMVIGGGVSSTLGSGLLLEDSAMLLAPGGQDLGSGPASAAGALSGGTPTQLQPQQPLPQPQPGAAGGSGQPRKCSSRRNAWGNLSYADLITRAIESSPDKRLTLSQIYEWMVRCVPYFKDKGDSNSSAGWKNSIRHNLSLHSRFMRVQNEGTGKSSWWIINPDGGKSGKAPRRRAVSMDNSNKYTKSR
Notes: whole hairpin DNA, median over replicate spots
AGTAAACAACGCCTCCTGGCGTTGTTTACT: 6190 a.u.
TGCCAACAACGCCTCCTGGCGTTGTTGGCA (5mC at 11): 4560 a.u.
TTCAAACAACGCCTCCTGGCGTTGTTTGAA: 3900 a.u.
TGCAAACACCGCCTCCTGGCGGTGTTTGCA (5mC at 16): 4930 a.u.
TGCAAAGAACGCCTCCTGGCGTTCTTTGCA (5mC at 31): 4040 a.u.
TGTAACCAACGCCTCCTGGCGTTGGTTACA (5mC at 17): 4120 a.u.
TGCAAACACGGCCTCCTGGCCGTGTTTGCA (5mC at 16 28): 4570 a.u.
TGTCAACAACGCCTCCTGGCGTTGTTGACA: 5430 a.u.

Series 2 — tested at: 1 µM; quantity: remaining binding
Structure (SMILES): Cc1cc(NC(=O)c2cccc(S(F)(F)(F)(F)F)c2)cc(-n2ccn3nc(-c4cccnc4)cc23)c1
Receptor-type tyrosine-protein kinase FLT3 (FLT3, Homo sapiens, UniProt P36888, D835V/ITD); cell-free assay, competition with immobilised ligand: 66.1%
Serine/threonine-protein kinase 36 (STK36, Homo sapiens, UniProt Q9NRP7); cell-free assay, competition with immobilised ligand: 93.1%
MAP kinase-interacting serine/threonine-protein kinase 2 (MKNK2, Homo sapiens, UniProt Q9HBH9); cell-free assay, competition with immobilised ligand: 85.2%
Serine/threonine-protein kinase MRCK beta (CDC42BPB, Homo sapiens, UniProt Q9Y5S2); cell-free assay, competition with immobilised ligand: 100%
Bone morphogenetic protein receptor type-2 (BMPR2, Homo sapiens, UniProt Q13873); cell-free assay, competition with immobilised ligand: 59.3%
Serine/threonine-protein kinase 32C (STK32C, Homo sapiens, UniProt Q86UX6); cell-free assay, competition with immobilised ligand: 75.8%
Receptor-type tyrosine-protein kinase FLT3, autoinhibited (FLT3, Homo sapiens, UniProt P36888); cell-free assay, competition with immobilised ligand: 100%
Tyrosine-protein kinase ABL1, non-phosphorylated (ABL1, Homo sapiens, UniProt P00519, F317L); cell-free assay, competition with immobilised ligand: 100%
Mitogen-activated protein kinase kinase kinase 6 (MAP3K6, Homo sapiens, UniProt O95382); cell-free assay, competition with immobilised ligand: 62.7%
Aurora kinase C (AURKC, Homo sapiens, UniProt Q9UQB9); cell-free assay, competition with immobilised ligand: 86.7%
Receptor-type tyrosine-protein kinase FLT3 (FLT3, Homo sapiens, UniProt P36888, D835H); cell-free assay, competition with immobilised ligand: 99.9%
Ephrin type-A receptor 7 (EPHA7, Homo sapiens, UniProt Q15375); cell-free assay, competition with immobilised ligand: 91.2%
Epidermal growth factor receptor (EGFR, Homo sapiens, UniProt P00533, L858R); cell-free assay, competition with immobilised ligand: 100%
Inhibitor of nuclear factor kappa-B kinase subunit alpha (CHUK, Homo sapiens, UniProt O15111); cell-free assay, competition with immobilised ligand: 71.1%
Cyclin-dependent kinase 19 (CDK19, Homo sapiens, UniProt Q9BWU1); competition binding: 84.1%
Phosphatidylinositol 4,5-bisphosphate 3-kinase catalytic subunit alpha isoform (PIK3CA, Homo sapiens, UniProt P42336, Q546K); cell-free assay, competition with immobilised ligand: 100%
Serine/threonine-protein kinase Nek3 (NEK3, Homo sapiens, UniProt P51956); cell-free assay, competition with immobilised ligand: 50.5%

Series 3 — species: mouse; medium: microsomes or S9; tested at: 2 µM; time: 0.5 h; quantity: remaining compound
CCOc1cccc(CNC(=O)c2c(OC)cc(=O)n3c2CCCC3)c1: 1.49%
O=C(C1c2ccccc2C(=O)N2CCc3ccccc3C12)N1CCC(Cc2ccccc2)CC1 (stereo not shown): 0.0795%
CCOC(=O)c1cc(-c2ccc(S(=O)(=O)NC(C)(C)CC)s2)on1: 0%
COC(=O)c1nccnc1C1=NC(C)(C(C)C)C(=O)N1 (stereo not shown): 63.7%

Series 4 — method: RNA Bind-n-Seq; form: RNA; medium: in vitro; tested at: not given; relative to: input RNA pool; reading: higher = stronger binding; quantity: bound/input enrichment
Target: RING finger protein unkempt homolog, zinc fingers 1-6, GST-SBP tag (UNK, Homo sapiens, UniProt Q9C0B0, residues 30-357)
Chain of UniProt Q9C0B0 (30-357, looked up): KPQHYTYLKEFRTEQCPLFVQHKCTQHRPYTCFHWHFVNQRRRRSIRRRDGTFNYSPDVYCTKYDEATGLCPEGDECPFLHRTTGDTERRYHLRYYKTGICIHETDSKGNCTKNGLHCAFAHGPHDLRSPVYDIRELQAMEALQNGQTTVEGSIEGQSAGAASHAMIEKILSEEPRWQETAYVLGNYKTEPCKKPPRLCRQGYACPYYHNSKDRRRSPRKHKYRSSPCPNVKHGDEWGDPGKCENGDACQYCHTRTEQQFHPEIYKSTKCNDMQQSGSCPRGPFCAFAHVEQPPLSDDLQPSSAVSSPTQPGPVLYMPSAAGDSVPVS
Notes: RNA with constant flanks, human-mouse chimeric sites, ends assumed
Constant ends, left off below: GGGAGUUCUACAGUCCGACGAUC … CAACAGAGGAUUGAGCAUCA
UUCCCAACCUCCCGCCUCACCCCACCCCCGCUUUUUGAAAGUGUGUUGGCGUUUCUUUUCCUUCCCCAUACAAAGUGAUUACAGUUUCCCCCGCAAGGGUCUAUCGAAGGGCUUGACGGA: 0.622 ratio
ACUCUUGACUCUUUCCAUCCUCUUCCUUUCCCUCUUGAUAUUCAAGGCCAUGAAUCCCAAAAUAACAAUCUAUCUUACUAGCACCCAAACAGAGGUGGAAUAAAUCCAAACUGACAACUC: 1.98 ratio
CAGCUGCAGACAGAAAAGGAUGAGAAGGAGCUGUAUAAGGUACAUUUGAAGAAUACAGAAAUAGAAAAUACGAAGCUUAUGUCAGAGGUCCAGACUUUAAAGAAUUUAGAUGGAAACAAA: 3.07 ratio
GUUGCCAGCUUCCGGUUCCGUUGGGCUCGGUUCUCUCCUGAGCUACGUGUCUCUACGCUCUCAAUCCGCCAUCCAACAAACAUGGAUCAGGUAAUGCUGCAGUUUGUGCCCAGCCGGCAG: 0.191 ratio
AAAGAGAAACUAAAGCAACUAAUAGAGAAGAGGAUUGGCAAAGAGAAAUUUCAUAGAAAACUAGGAUUUAUUAGCAAACAUGAGUUAGUAUUCCAGACGUCUCAGAAACCCCAGCCAAAC: 7.66 ratio
ACCAUUUUCGCGGUUCAGGCUUUGUGUUGUAUUUACUUACGGUAUUAAAUUAUUAUUCUGCUUAGCUUAUAAUAAGGAUAAUUGCAUGAUUUAAGUAUACUGAAUGUUACUCUGAAACUU: 0.266 ratio
CUCGGCACCGGCACGCUUUACAUCGCGGAGAGCCGCCUGUCUUGGUUAGAUGGUUCGGGAUUAGGAUUCUCACUGGAAUACCCCACCAUUAGUUUACAUGCGGUGUCCAGGGAUCCAAAC: 0.407 ratio
GGCUGCUACUAUUCUCCCUGGAGUGGCUGGAGUUCCCGCCGGAGCGCGGCCAGACUAAUUAUAGAAAAUGCCAAGUAGGAAGUUUGUUGAGGGUGAAGUGGUCAGAGGCCGAUGGCCUGG: 4.34 ratio

Series 5 — cell line: A-375; tested at: 100 µM; time: 18 h; quantity: viability
Cc1ccccc1C(=O)Nc1ccc(C(=O)N2CCCC(O)c3cc(Cl)ccc32)c(C)c1 (stereo not shown): 69.9%
CCn1cc(C(=O)O)c(=O)c2cc(F)c(N3CCNCC3)cc21: 90.2%
CC1(C)[C@@H]2CC[C@@]1(C)C(=O)C2: 91%

Repeated from above (series 2):
MAP kinase-interacting serine/threonine-protein kinase 2 (MKNK2, Homo sapiens, UniProt Q9HBH9); cell-free assay, competition with immobilised ligand: 85.2%
Serine/threonine-protein kinase MRCK beta (CDC42BPB, Homo sapiens, UniProt Q9Y5S2); cell-free assay, competition with immobilised ligand: 100%
Bone morphogenetic protein receptor type-2 (BMPR2, Homo sapiens, UniProt Q13873); cell-free assay, competition with immobilised ligand: 59.3%
Serine/threonine-protein kinase 32C (STK32C, Homo sapiens, UniProt Q86UX6); cell-free assay, competition with immobilised ligand: 75.8%
Receptor-type tyrosine-protein kinase FLT3, autoinhibited (FLT3, Homo sapiens, UniProt P36888); cell-free assay, competition with immobilised ligand: 100%
Tyrosine-protein kinase ABL1, non-phosphorylated (ABL1, Homo sapiens, UniProt P00519, F317L); cell-free assay, competition with immobilised ligand: 100%
